Assay results collected from several papers.
Each numbered part is a random draw from the data of one study; scales do not carry over between parts. Positions count from the first letter of the parent shown.

Block 1
Target: Interferon regulatory factor 7, full length, phosphomimetic (IRF7, Homo sapiens, UniProt Q92985, residues 1-503, S471D/S472D/S475D/S476D/S477D/S483D/S484D/S487D)
Method: protein-binding microarray
Molecule type: double-stranded DNA, one strand shown
Medium: in vitro
Concentration: 2200 nM top
Setting: 60-bp whole probe
With: salmon DNA 0.4 mg/ml
Reference: random background probes
Direction: higher = stronger binding
All sequences stand within: GCCTAGCAC … GTCTTGATTCGCTTGACGCTGCTG
Residues (chain): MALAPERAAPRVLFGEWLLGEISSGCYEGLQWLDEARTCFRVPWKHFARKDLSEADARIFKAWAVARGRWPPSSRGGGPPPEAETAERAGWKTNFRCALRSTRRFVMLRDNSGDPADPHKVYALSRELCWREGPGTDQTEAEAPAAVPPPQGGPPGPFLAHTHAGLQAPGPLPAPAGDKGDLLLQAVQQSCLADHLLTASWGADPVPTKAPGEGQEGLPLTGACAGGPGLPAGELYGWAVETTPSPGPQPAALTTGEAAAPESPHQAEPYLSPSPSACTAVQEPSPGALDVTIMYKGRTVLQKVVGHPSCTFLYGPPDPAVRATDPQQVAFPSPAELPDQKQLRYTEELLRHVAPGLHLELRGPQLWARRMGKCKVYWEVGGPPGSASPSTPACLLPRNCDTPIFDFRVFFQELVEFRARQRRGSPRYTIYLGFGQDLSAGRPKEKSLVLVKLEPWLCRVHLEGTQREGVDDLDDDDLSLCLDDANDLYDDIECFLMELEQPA
| Sequence | fitted relative affinity [z-score] |
| --- | --- |
| GACGATTTCCGTTCCGAGACGTGCTAG | 3.25 |
| TTAGATATCGTGACTGGATTAGTGCTA | -0.00105 |
| TCAGATCACCGATTTCCTACTGTGCTA | 1.58 |
| GACGGTATCGGGACCGGGGACGTGCTA | -0.503 |
| AATTACATTTCATAGAGTGTGTGCTAG | 0.609 |
| TTAGGTATCCTTTTCCTTTTGTGCTAG | 3.08 |
| TTAGATTTCAGACTGGTTTAGTGCTAG | 0.0597 |
| TACTTTCTATGTCTGTTTTTGTGCTAG | 4.96 |
| GACGGTATCCTACTGCTCACGTGCTAG | 0.994 |
| TTAGGTTACGGACTGGGTTAGTGCTAG | -0.0419 |
| TCAGGTTTCGGTTCCGGTTAGTGCTAG | 11.5 |
| TTACGTTCCGGTTTCGGTTAGTGCTAG | 9.27 |
| GACGAACTGAGACTGGAAACGTGCTAG | -0.154 |
| TTAGGACTGGACTATCAGTTAGTGCTA | -0.822 |
| TCAATATTGAGACTCATACTGTGCTAG | 0.238 |
| CTCTCATTCCAATTCTTTTTGTGCTAG | 2.16 |
| GAAGGTCTCGGACTGGGGACGTGCTAG | -0.559 |
| TTAGATTTCAGTTCCCATTAGTGCTAG | 2.26 |
| GACGTTCTCAGTCTCGAGACGTGCTAG | 0.632 |
| TTTGGTTTCCTTTCCCTTTAGTGCTAG | 6.65 |

Block 2
Target: Ras GTPase-activating protein-binding protein 1, full length (G3BP1, Homo sapiens, UniProt Q13283)
UniProt Q13283, sequence (whole entry, looked up): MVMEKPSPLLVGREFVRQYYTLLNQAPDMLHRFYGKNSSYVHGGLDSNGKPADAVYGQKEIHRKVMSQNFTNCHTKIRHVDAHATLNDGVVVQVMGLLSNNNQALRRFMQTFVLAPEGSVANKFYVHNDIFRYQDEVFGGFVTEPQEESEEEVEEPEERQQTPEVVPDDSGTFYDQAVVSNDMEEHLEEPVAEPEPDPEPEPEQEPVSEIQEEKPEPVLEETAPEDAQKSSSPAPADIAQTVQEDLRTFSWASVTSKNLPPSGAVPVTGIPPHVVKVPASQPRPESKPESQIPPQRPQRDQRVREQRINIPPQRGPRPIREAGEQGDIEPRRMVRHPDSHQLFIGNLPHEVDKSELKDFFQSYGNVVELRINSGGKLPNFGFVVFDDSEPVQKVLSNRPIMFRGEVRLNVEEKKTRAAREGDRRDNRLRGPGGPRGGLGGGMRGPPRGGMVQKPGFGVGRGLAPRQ
Method: RNA Bind-n-Seq
Molecule type: RNA
Medium: in vitro
Concentration: 200 nM
Setting: whole 134-nt RNA, ends assumed
With: 150 mM LiCl
Reference: input library
Direction: higher = stronger binding
All molecules: 7-deaza-guanosine replaces G
All sequences stand within: GGGAGUUCUACAGUCCGACGAUC … UGGAAUUCUCGGGUGUCAAGG
| Sequence | log2 enrichment |
| --- | --- |
| GUAGCUGCUCCAGUGGGCCCAGUGGGCCCCACUCCUACAGUUUUGCCCAUGGGAGCCCCUGUUCCCCGGCCUCGUGGUCCCCCACCGCCC | 0.246 |
| CACAGACAACACGCACCCACACAGACACAGAGAGAAGGGGUUGGGAUGGGGACAGGGUGCACAGCAGGGCGGGGUAGGACCCCAGCCCCU | 0.78 |
| GCAGGAAGUAAAAACAAAUGGAAAUGCUUCGGAUAGUGGCAGGGGUGGGGGUUGCUAAGGAAAGGGUGGGAUGGGAGUGGGUAAAGAAAU | 0.0523 |
| CUGUGCUACACAUCGUAUGUACCGAAUCGGUUUUUUUGGGGUUUUUUUGGGGUUUUUUUGGAAAGUAUUAUGUUACGCCGUUCGGAUCUG | 1.52 |
| UGGGAGGUGGAUUUCGUUUAUUUUUUUAGCUCAUUUCCAGGGGUGGGAAUUUUUUUUUAAUAUGUGUCAUGAAUAAAGUUGUUUUUGAAA | 0.0499 |
| CUCAAGUCCUGUGCUACACAUCGUAUGUACCGAAUCGGGAAGGGAAGGAAGGGGAAAGUAUUAUGUUACGCCGUUCGGAUCUGCACUUCC | -0.248 |
| CAAGUCCUGUGCUACACAUCGUAUGUACCGAAUCGGGGAAGGGGAAGGGGAAGGGAAAGUAUUAUGUUACGCCGUUCGGAUCUGCACUUC | 0.0615 |
| UCAAGUCCUGUGCUACACAUCGUAUGUACCGAAUCGGGGCCGGGCCGGGCCGGGGAAAGUAUUAUGUUACGCCGUUCGGAUCUGCACUUC | 0.777 |
| UCAAGUCCUGUGCUACACAUCGUAUGUACCGAAUCGGGGUUGGGGUUGGGUUGGGAAAGUAUUAUGUUACGCCGUUCGGAUCUGCACUUC | -0.252 |
| UGGGAGGUGGAUUUUGUUUAUUUUUUUAGCUCAUUUCGAGGGGUGGGAAUUUUUUUUUAAUAUGUGUCAUGAAUAAAGUUGUUUUUGAAA | 0.449 |
| UCCUGUGCUACACAUCGUAUGUACCGAAUCAAAUUUUUUUAAAUUUUUUUAAACCCAAAAAAGUAUUAUGUUACGCCGUUCGGAUCUGCA | -0.148 |

Block 3
Target: DBP, bZIP domain (human)
Method: DHFR protein complementation
Medium: yeast
Setting: single substitutions, most at no-binding floor
Reference: wild-type JUN-FOS pair
Direction: higher = stronger binding
Parent: JUN, bZIP domain (human); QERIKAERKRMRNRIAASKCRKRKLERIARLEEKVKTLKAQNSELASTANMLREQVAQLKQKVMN; partner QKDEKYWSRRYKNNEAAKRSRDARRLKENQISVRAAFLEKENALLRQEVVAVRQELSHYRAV
| Variant | binding fitness |
| --- | --- |
| V56W | -1.47 natural log |
| E32L | -1.39 natural log |
| N42S | -1.54 natural log |
| R30P | -1.48 natural log |
| R30Q | -1.44 natural log |
| V56F | -1.49 natural log |
| V56R | -1.48 natural log |
| T37R | -1.44 natural log |
| A57N | -1.29 natural log |
| L31R | -1.51 natural log |
| V56G | -1.47 natural log |
| A29C | -1.54 natural log |
| L31T | -1.26 natural log |
| E32N | -1.46 natural log |
| A29Q | -1.49 natural log |
| L52I | -1.28 natural log |
| N42I | -1.48 natural log |
| L45S | -1.5 natural log |
| R53S | -1.42 natural log |
| A49F | -1.36 natural log |
| I28E | -1.54 natural log |
| A40T | -1.53 natural log |
| R30A | -1.47 natural log |
| V35A | -1.35 natural log |
| M51Q | -1.46 natural log |

Block 4
Target: Histone acetyltransferase KAT6A, both winged helices, GST fusion (KAT6A, Homo sapiens, UniProt Q92794, residues 1-181)
Method: protein binding microarray
Molecule type: double-stranded DNA, one strand shown
Medium: in vitro
Concentration: not given
Setting: 8-mer, flanks averaged, mean of 2 arrays, mostly near background
Reference: not given
Direction: higher = stronger binding
Target sequence (chain): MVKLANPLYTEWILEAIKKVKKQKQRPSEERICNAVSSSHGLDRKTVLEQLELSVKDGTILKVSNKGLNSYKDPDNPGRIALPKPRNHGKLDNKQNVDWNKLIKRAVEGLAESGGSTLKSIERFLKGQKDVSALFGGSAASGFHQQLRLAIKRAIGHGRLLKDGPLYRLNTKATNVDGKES
| Sequence | E-score |
| --- | --- |
| CTGGTGGC | -0.222 |
| AATCCGCT | 0.184 |
| ATTCAGTA | -0.0407 |
| AACCAGCC | 0.0248 |
| AACCCGAT | 0.134 |
| CACCCCGG | 0.0696 |
| AGTGGCCA | -0.173 |
| ACCCGTAA | 0.21 |
| AGAGAAAC | -0.0456 |
| GCACGCTA | 0.155 |
| CTCGTAAG | 0.0783 |
| ATTACGTC | -0.122 |
| AAACTAAT | 0.00944 |
| CGTCTCAG | -0.0758 |
| AACTAAGT | -0.0542 |
| AAAGTGGG | -0.13 |
| GTGTCGCA | 0.142 |
| AGAAACAT | 0.0529 |

Block 5
Target: Centromere-binding protein 1, full length, N-terminal tag (CBF1, Saccharomyces cerevisiae, UniProt P17106, residues 1-351)
UniProt P17106, sequence (whole entry, looked up): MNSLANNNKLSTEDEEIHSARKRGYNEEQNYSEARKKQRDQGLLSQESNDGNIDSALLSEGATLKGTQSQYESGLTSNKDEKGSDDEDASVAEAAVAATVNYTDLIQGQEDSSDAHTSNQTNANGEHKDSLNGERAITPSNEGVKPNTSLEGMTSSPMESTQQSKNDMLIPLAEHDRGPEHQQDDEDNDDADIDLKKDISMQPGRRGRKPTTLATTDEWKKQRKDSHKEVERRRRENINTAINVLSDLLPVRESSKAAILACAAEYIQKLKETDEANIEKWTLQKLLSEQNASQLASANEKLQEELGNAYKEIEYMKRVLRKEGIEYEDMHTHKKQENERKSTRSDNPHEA
Method: protein-binding microarray
Molecule type: double-stranded DNA, one strand shown
Medium: in vitro
Concentration: 0.8 µM
Setting: whole 60-bp probe, no competitor
Direction: higher = stronger binding
All sequences stand within: … GTCTTGATTCGCTTGACGCTGCTG
| Sequence | fluorescence intensity [a.u.] |
| --- | --- |
| GAAAAGGAACAATCAGCTGAGATGTGTTGAGAATAG | 633 |
| CTAGATATTTACATTCACCTCACATATATACGCTTC | 532 |
| GAAGTGTGTGGGTGTGGTGTGGTGTGGGTGTGGTAG | 537 |
| CCTAACTACTATAATCACGTGCAATAGCTTCGTACA | 10200 |
| GAAAAAGGCATTCACGTTGTAGAAGAGTCAAAGTAG | 697 |
| CTATCCCACATGATTCACCTGATTACGACTCACTTC | 991 |
| GAACTTGGTGTGATTGTCGTCACCTTGCCATCCTAG | 519 |
| CTAATTCGGCTCGATCATGAGGATTTCGGGCCGTTC | 531 |
| CTAATGGAAAAATCACCTGGCACGTCATTTCATTTC | 676 |
| GAAAATTTCATAAAACACGTTTTAGTACCAGAATAG | 586 |
| GAATTGTGTATGCGTTGTGACGTACGGAAGGCATAG | 543 |
| GAAACTTGTACCCTTCATCACCTTTGGAATCACTAG | 531 |
| GAATTCGATTATTTTGATGTGACTTGAAGGCTTTAG | 561 |
| CTACGTATGTCTCAGCACGTCCTTCGAGCGTGGTTC | 511 |
| CCTAACTACTATAACCTCGTGTTATAGCTTCGTACA | 588 |
| CTAGAACTCGCTGGTGATGACATGCCGAAATTATTC | 553 |
| GAAAGGCAATCGAAACACGTGGAAAAGTACTCTTAG | 1850 |
| TGTACGAAGCTATGTGACTACACTATAGTAGTTAGG | 530 |
| CTATAAAATGGTACCCATCTGATGCAGGAATTCTTC | 552 |
| TGTACGAAGCTATCGTGCATTCCTATAGTAGTTAGG | 513 |
| GAAATAGTGGGTCGGCATGTGTTTGCTATTAGATAG | 650 |
| CCTAACTACTATAACCACCAGAAATAGCTTCGTACA | 524 |
| GAAGCGTAAAGTAGTCTCATGAAGTAGATGAGTTAG | 541 |
| CTACAAATGTTAGATAACGTGGATCTCCGACACTTC | 581 |
| CTAAATTTCTGTTACCACGGGGTTGTCAGTGGATTC | 672 |
